Experimental data collected from several papers.
Compare with care: the assays were run in different laboratories. ± marks the error that the study gave.
Cell line: HCT-116

| Structure (SMILES) | read-out | technique | tested at | time | reference | endpoint | value |
| --- | --- | --- | --- | --- | --- | --- | --- |
| Cc1ccc(CN2C3(NC(c4ccc(C)cc4)C24C(=O)Nc2ccccc24)C(=O)Nc2ccccc23)cc1 (stereo not shown) | cell growth or viability | MTT | – | 48 h | – | IC50 | 58.9 µM |
| C/C(=N\Nc1ncnc2sc3c(c12)CCCC3)c1cc(O)ccc1O | – | – | – | 7 d | – | colony formation | decreased |
| COc1ccc(NC(=O)c2c(Nc3ccccc3)sc(C(=O)N/N=C/c3ccc(OC)c(OC)c3)c2NC(C)=O)cc1 | cell growth or viability | SRB | 1 nM | 48 h | – | viability | 103% |
| [BH3-][P+]1(c2ccccc2)CCCCC1 | – | trypan blue | IC50 | 72 h | untreated | reduction of cell number | 16% |
| CCn1c(-c2ccccc2)cs/c1=N/N=C(\C)c1c(O)c2ccccc2oc1=O | cell growth | MTT | – | – | IC50 BJ-1 over HCT-116 | selectivity index | > 10.1 |
| [BH3-][P+]1(C2CCCCC2)CCCCC1 | – | MTT | – | 72 h | IC50 HaCaT over IC50 HCT-116 | selectivity index | 1.8 |
| CCN(C(=O)c1cc(F)ccc1Oc1nncnc1N1CCC2(C1)CN([C@H](CCCN(C)CCOC)C(C)C)C2)C(C)C | cell growth or viability | – | – | 72 h | – | GI50 | > 10 µM |
| CCNC(=S)NN=Cc1c2ccccc2cc2ccccc12.Cc1ccc(C(C)C)cc1.[Cl-].[Cl-].[Ru+2] | cytotoxicity | MTS | – | 72 h | – | IC50 | 224 ± 7 µM |
| CSC(=S)N/N=C(\C)c1ccc(S(=O)(=O)N2CCC(C)CC2)cc1 | – | flow cytometry | 3.66 µM (IC50) | 72 h | – | cells in G2/M phase | 29.2% |
| O=C1CCP(=O)(c2ccccc2)CC1 | – | MTT | – | 72 h | IC50 HaCaT over IC50 HCT-116 | selectivity index | 1 |
| CC(=NN=c1sc(C(=O)c2ccccc2)nn1-c1ccccc1)c1ccc(S(=O)(=O)N2CCC(C)CC2)cc1 | – | flow cytometry | 3.66 µM (IC50) | 72 h | – | cells in S phase | 33.1% |
| O=c1c(-c2cnn(-c3ccccc3)c2)c(C(F)(F)F)oc2c(O)c(O)ccc12 | apoptosis | annexin V flow cytometry | – | – | – | EC50 | ~58 µM |
| NC(=O)c1ccc(-c2ccccc2Cl)c2c3c([nH]c12)CCC(N)C3 (stereo not shown) | cell growth or viability | – | – | 96 h | – | IC50 | 0.00277 µM |
| [BH3-][P@+]1(c2ccccc2)CC[C@@H](O)CC1 | – | MTT | – | 72 h | IC50 HaCaT over IC50 HCT-116 | selectivity index | 1 |
| CCN1C(=O)CS/C1=N/N=C(\C)c1c(O)c2ccccc2oc1=O | cell growth | MTT | – | – | IC50 BJ-1 over HCT-116 | selectivity index | > 9.26 |
| CSC(=NN=C(C)c1ccc(S(=O)(=O)N2CCC(C)CC2)cc1)N(C)C | – | flow cytometry | 3.66 µM (IC50) | 72 h | – | cells in pre-G1 phase | 11.5% |
| C/C(=N\N=c1/[nH]c(-c2ccccc2)cs1)c1c(O)c2ccccc2oc1=O | cell growth | MTT | – | – | IC50 BJ-1 over HCT-116 | selectivity index | > 3.14 |
| O=[P@]1(c2ccccc2)CC[C@H](O)CC1 | – | MTT | – | 72 h | IC50 HaCaT over IC50 HCT-116 | selectivity index | 1 |
| CCCC(CCC)C(=O)OCc1cn(-c2cc3ccccc3oc2=O)nn1 | – | NCI60 single-dose screen | 10 µM | – | – | growth percentage | 91.5% |
